Results of several laboratories.
Lines come from different studies, so protocols differ. “And” joins repeats or separate records; there may be more than shown. Numbers after ± are the reported error. In brackets after ≈: the same amount, converted by molar mass.

NS(=O)(=O)c1ccc(CNc2nc(Nc3cccc(CN4CCOCC4)c3)ncc2C2CC2)cc1 — selectivity score S10 (403 human wild-type kinases; scanMAX binding; 1 µM, hit below 10% of control; relative to: hits over kinases tested, direction not given): 0.007
CCCCCCCC(=O)c1c(O)cc(O)cc1CC(=O)OCC — activation (Gal4-VP16; reporter gene, Gal4-VP16 control reporter; 10 µM; relative to: vehicle): 0.95 fold
OC[C@H]1O[C@@H]2O[C@H]3[C@H](O)[C@@H](O)[C@@H](O[C@H]4[C@H](O)[C@@H](O)[C@@H](O[C@H]5[C@H](O)[C@@H](O)[C@@H](O[C@H]6[C@H](O)[C@@H](O)[C@@H](O[C@H]7[C@H](O)[C@@H](O)[C@@H](O[C@H]8[C@H](O)[C@@H](O)[C@@H](O[C@H]1[C@H](O)[C@H]2O)O[C@@H]8CO)O[C@@H]7CO)O[C@@H]6CO)O[C@@H]5CO)O[C@@H]4CO)O[C@@H]3CO — bioluminescence induction (LuxR; Escherichia coli sensor; 1 µM; higher = stronger induction): 781 ± 43 RLU
Cc1ccc(Nc2nccc(N(C)c3ccc4c(C)n(C)nc4c3)n2)cc1S(N)(=O)=O — inhibition (CaMKII (rat); kinase activity, inhibitor; 10 µM): 10%
Clc1ccc(C(c2c[nH]c3ccccc23)c2c[nH]c3ccccc23)cc1 — activation (Gal4-VP16; reporter gene, Gal4-VP16 control reporter; 10 µM; relative to: vehicle): 1 fold
[Mn+2] — activity class (PP2C; enzyme activity; concentration not given): active
OCC(CCc1ccc(O)cc1)c1ccc(O)cc1 (centres unmarked) — IC50 (STAT3; reporter gene, inhibitor; NCI-H460): 3.34 µg/mL (≈ 12.9 µM)
CC(Nc1nc(N2CCCC2)nc2ccccc12)c1ccccc1 (centres unmarked) — cells with nuclear reporter (transportin-1/2; FUS nuclear import, high content imaging; HeLa Kyoto reporter; 15.8 µM, 2 h): 98.4%
Oc1ccccc1-c1n[nH]cc1-c1ccnc2ccccc12 — log2 fold change (MKK2 (Candida albicans); kinase binding, MIB/MS competition; Candida albicans lysate; 10 µM; relative to: DMSO): 0.44
Cc1nn(CC(F)(F)F)cc1Nc1ncc(Br)c(NCCCNC(=O)C2CCC2)n1 — number of kinases bound (403 human wild-type kinases; scanMAX; PoC below 10): 62
C=CC(=O)N1[C@@H](c2ccc3c(c2)OCO3)c2[nH]c3ccccc3c2C[C@@H]1C(=O)NC — inhibition (PQLC3 Cys135 human; cysteine IA-DTB labelling, covalent inhibitor, MS-ABPP; 22Rv1; 20 µM, 3 h): 45% and 44%
c1coc(-c2n[nH]cc2-c2ccnc3ccccc23)c1 — log2 fold change (YAK1 (Candida albicans); kinase binding, MIB/MS competition; Candida albicans lysate; 10 µM; relative to: DMSO): -0.26
Cc1nn(CC(F)(F)F)cc1Nc1ncc(C2CC2)c(NCCc2c[nH]cn2)n1 — number of kinases bound (403 human wild-type kinases; scanMAX; PoC below 10): 2
O=S(=O)(NCCNC/C=C/c1ccc(Br)cc1)c1cccc2cnccc12 — embryos arrested at zygote stage (PKA; inhibitor; mouse zygotes; 20 µM, injection, hCG, 48 h post, early embryonic development): 0%
CSc1cc(Oc2ccnc3[nH]c(=O)cnc23)ccc1NC(=O)Nc1cc(C(C)(C)C)nn1-c1ccccc1 — phospho-Src family Tyr416/total ratio (Src family kinases; reverse-phase protein array; patient-derived cell clone A; 1 µM, 4 h; relative to: DMSO): 0.24
CC(C)Cn1c(=O)n(C)c(=O)c2[nH]cnc21 — EC50 (cGMP antibody; acetylated cGMP EIA): > 1000 µM
CCCCCCNc1nc(NC2CCN(C)CC2)c2cc(OC)c(OC)cc2n1 — EC50 (Toxoplasma gondii; bradyzoite growth; pH 8.2, alkaline-induced bradyzoites): 0.85 µM
O=C(C#Cc1cn(Cc2ccccc2)c(=O)[nH]c1=O)NCc1ccccc1 — remaining MMP-8 activity (MMP-8; inhibitor, colorimetric; 20 µM): 96 ± 7%
NS(=O)(=O)c1ccc(CNc2ccnc(Nc3cccc(NC(=O)N4CCCC4)c3)n2)cc1 — selectivity score S10 (403 human wild-type kinases; scanMAX binding; 1 µM, hit below 10% of control; relative to: hits over kinases tested, direction not given): 0.002
O=C(O)/C=C/c1cnc[nH]1 — inhibition (gasdermin E (human); inhibitor; 100 µM, 2 h): 79.4%
CCCCCCCC(=O)OC[C@H](COP(=O)(O)O[C@@H]1[C@H](O)[C@H](O)[C@@H](OP(=O)(O)O)[C@H](OP(=O)(O)O)[C@H]1O)OC(=O)CCCCCCC — efficacy factor E2 (Kv7.2/Kv7.3(EEE) mutant channel; channel open probability, activator, fitted PIP2 binding model; model 5; relative to: channel without bound PIP2): 0.11
O=C(NCCCNc1nc(Nc2cccc(NC(=O)N3CCCC3)c2)ncc1C1CC1)C1CCC1 — number of kinases bound (403 human wild-type kinases; scanMAX; PoC below 10): 30
O=C(c1ccc(OCCN2CCCCC2)cc1)c1c(-c2ccc(O)cc2)sc2cc(O)ccc12 — EC90 (Toxoplasma gondii; parasite growth; HFF, bradyzoite, alkaline-induced): 11.5 µM
Cc1nn(CC(F)(F)F)cc1Nc1nccc(NCCCNC(=O)C2CCC2)n1 — number of kinases bound (403 human wild-type kinases; scanMAX; PoC below 10): 1
[Sr+2] — activity class (PP2C; enzyme activity; concentration not given): inactive
Cc1nn(CC(F)(F)F)cc1Nc1nccc(NCCc2cnc[nH]2)n1 — number of kinases bound (403 human wild-type kinases; scanMAX; PoC below 10): 0
COc1cc(C(=O)O)cc(OC)c1O — inhibition (gasdermin E (human); inhibitor; 100 µM, 2 h): 78.9%
NS(=O)(=O)c1ccc(CNc2nc(Nc3cccc(NC(=O)N4CCCC4)c3)ncc2C2CC2)cc1 — number of kinases bound (403 human wild-type kinases; scanMAX; PoC below 10): 1
COc1cccc2c(Nc3ccc4[nH]c(C(=O)N/N=C/c5ccc(SC)cc5)cc4c3)cc(C)nc12 — activation (Gal4-VP16; reporter gene, Gal4-VP16 control reporter; 3 µM; relative to: vehicle): 0.76 ± 0.08 fold
